Measurements from different studies.
Compare with care: the assays were run in different laboratories.
Target: NUAK family SNF1-like kinase 2 (NUAK2, Homo sapiens, UniProt Q9H093)

SMILES	test	test system	setting	how to read	quantity	result
CNC(=O)C1CCN(c2cc(C)c(F)cc2NC(=O)c2ccc(-c3cc(O)ccc3C)c(C)c2)CC1	binding, competition with immobilised ligand		1 µM		remaining binding	71%
CN1CCN(Cc2ccc(-c3ccc(CO[C@H]4CCC[C@@H]4NC(=O)c4cc(-c5cnn(C)c5)cnc4N)cc3)cc2)CC1	enzyme activity, inhibitor		0.1 µM		inhibition	-2%
CN1CCN(Cc2ccc(NC(=O)c3cccc(C#Cc4cnc(N)c5ncccc45)c3)cc2C(F)(F)F)CC1	cell-free assay, competition with immobilised ligand		0.5 µM		remaining binding	73%
Cc1ccc(-c2c(/C=C(\C#N)C(=O)NC(C)C)n(CCCO)c3ncnc(N)c23)cc1	cell-free assay, competition with immobilised ligand		1 µM		remaining binding	92%
COc1c(Cl)cccc1Nc1c(-c2ccncc2C#C[C@@]2(C)CCCN2C(=O)/C=C/CN(C)C)[nH]c2c1C(=O)NCC2	binding, competition with immobilised ligand		3 µM		remaining binding	87%
O=C(Cc1ccc(OCc2ccccc2)cc1)NC1(C(=O)O)CCN(C(=O)c2ccc(-c3cccc(Cl)c3)cc2)CC1	enzyme activity, inhibitor		10 µM		activity vs control	119%
Cc1c[nH]c2nccc(-c3ccc(C(=O)N[C@@H]4c5c(F)cc(C(F)F)cc5C[C@@H]4O)cn3)c12	binding, competition with immobilised ligand		3 µM		remaining binding	1.1%
CNC(=O)C[C@H](Cc1ccc(C#N)cc1)NC(=O)c1cc(-c2ccc(CN[C@H](C)c3ccc(C)cc3)o2)ccc1Cl	enzyme activity, inhibitor		1 µM		activity vs control	97%
C=CC(=O)N1CCCC(n2c(=O)c3ncccc3n(Cc3ccc(Oc4ccccc4)cc3)c2=O)C1 (stereo not drawn)	cell-free assay, competition with immobilised ligand		1 µM		remaining binding	82%
COc1cc(Nc2nccc(-c3cnn4nc(OC)ccc34)n2)cc(C(F)(F)F)c1	binding, competition with immobilised ligand		1 µM		remaining binding	83%
CC(C)=CC1OC(C)(C)C2C=C3C(=O)C(Cl)=CC(O)C3C3C(O)C4OC4C(=O)C132 (stereo not drawn)	cell-free assay, competition with immobilised ligand		10 µM		remaining binding	3.3%
NC(=O)C[C@H]1CCc2sc3ncnc(O[C@H]4CC[C@H](N5CCOCC5)CC4)c3c21	enzyme activity, inhibitor		10 µM		inhibition	-2%
C=CC(=O)Nc1cc(-c2nn(C3CCN(CCNC(=O)[C@H](C)CCC45CC6CC(CC(C6)C4)C5)CC3)c3ncnc(N)c23)ccc1Oc1ccccc1	inhibitor, KiNativ profiling	biochemical	2 µM		inhibition	3.9%
CNS(=O)(=O)Nc1nccc(Cc2c(C)c3ccc(Oc4ncccc4F)cc3oc2=O)c1F	binding, competition with immobilised ligand		10 µM		remaining binding	84%
C=CC(=O)N1CCc2ccc(-n3c(=O)ccc4cnc5ccc(-c6cnn(C)c6)cc5c43)cc21	KINOMEscan		1 µM	reference: DMSO control	remaining binding	68%

Excerpt of the above:
SMILES	test	test system	setting	how to read	quantity	result
Cc1c[nH]c2nccc(-c3ccc(C(=O)N[C@@H]4c5c(F)cc(C(F)F)cc5C[C@@H]4O)cn3)c12	binding, competition with immobilised ligand		3 µM		remaining binding	1.1%
CNC(=O)C[C@H](Cc1ccc(C#N)cc1)NC(=O)c1cc(-c2ccc(CN[C@H](C)c3ccc(C)cc3)o2)ccc1Cl	enzyme activity, inhibitor		1 µM		activity vs control	97%
